Values quoted from earlier work that unrelated publications cite.
Each line is one published result; not all experiments were run side by side. ± marks the error that the study gave. Values after ≈ are worked out from the molar mass of the structure shown.

`Nc1nc(NC2CC2)c2ncn([C@H]3C=C[C@@H](CO)C3)c2n1` gave an AUC(0-t) of 14300 ng·h/mL (healthy human volunteers; oral, 600 mg single dose, fasted, together with: dolutegravir 50 mg, lamivudine 300 mg).
`O=c1c(-c2ccc(O)cc2)coc2cc(O)cc(O)c12` gave a Cmax of 1840 nM (plasma; concentration not given).
For `CCS(=O)(=O)N1CC(CC#N)(n2cc(-c3ncnc4[nH]ccc34)cn2)C1`, the AUC increase was 4 fold (rheumatoid arthritis patients, severe renal impairment; dose not given, eGFR below 30 mL/min/1.73 m^2; reference: normal renal function).
`COc1cc(Nc2ncc3c(n2)-c2ccc(Cl)cc2C(c2c(F)cccc2OC)=NC3)ccc1C(=O)O`: “discontinuation due to adverse events” 10% (cancer patients, phase II; 50 mg twice daily).
`CC[C@H](C)CCCCC(=O)N[C@@H](CCN)C(=O)N[C@H](C(=O)N[C@@H](CCN)C(=O)N[C@H]1CCNC(=O)[C@H]([C@@H](C)O)NC(=O)[C@H](CCN)NC(=O)[C@H](CCN)NC(=O)[C@H](CC(C)C)NC(=O)[C@@H](Cc2ccccc2)NC(=O)[C@H](CCN)NC1=O)[C@@H](C)O` — result for “central volume of distribution”: 6.35 L (human patients; intravenous, dose not given, two-compartment population PK model).
For `CC[C@H](C)[C@H](NC(=O)[C@H](C)N)C(=O)N[C@H](C(=O)NCC(=O)N[C@@H](CC(C)C)C(=O)N[C@@H](CCSC)C(=O)N[C@H](C(=O)NCC(=O)NCC(=O)N[C@H](C(=O)N[C@H](C(=O)N[C@H](C(=O)N[C@@H](C)C(=O)O)[C@@H](C)CC)C(C)C)C(C)C)C(C)C)[C@@H](C)CC`, the solubility was 11 ± 3 µM (≈ 13.3 µg/mL) (filtration; sodium phosphate buffer; pH 7.4).
With `BODIPY-PIP2` the diffusion coefficient was 3e-08 cm²/s (fluorescence correlation spectroscopy; fluid PC membrane).
With `CN1CCN(c2ccc3nc(-c4c(N)c5c(F)cccc5[nH]c4=O)[nH]c3c2)CC1` the AUC(0-t) was 3730 ± 2120 ng·h/mL (human; oral, 500 mg once daily, 24 h, day 1).
`CC(C)c1nc(CN(C)C(=O)N[C@H](C(=O)N[C@@H](Cc2ccccc2)C[C@H](O)[C@H](Cc2ccccc2)NC(=O)OCc2cncs2)C(C)C)cs1` has a Cmax of 7070 nM (plasma; concentration not given).
`Cc1ccc(C)c(OCCCC(C)(C)C(=O)O)c1`: “maximum whole-body concentration” 1.3 ng/g (juvenile Chinook salmon, whole body wet weight; concentration not given, field-collected).
The log Kw of `Nc1ncnc2c1ncn2[C@H]1C[C@@H]2OP(=O)(O)OC[C@H]2O1` is reported as 0.97 (methanol/water).
`CCN(CC)CCNC(=O)c1c(C)[nH]c(/C=C2\C(=O)Nc3ccc(F)cc32)c1C`: “patients with thrombocytopenia” 8% (patients; dose not given, grade 3).
`O=C(CCCCCCC(=O)Nc1ccccc1)NO` has a half-life of 1.2 h (human; 200 mg, literature mean).
With `CCc1ccc(CCOc2ccc(CC3SC(=O)NC3=O)cc2)nc1` (stereo not shown) the unbound fraction was 0.19 to 0.34 (rapid equilibrium dialysis; hepatocyte culture medium).
The hemolysis of `CC[C@H](C)[C@H](NC(=O)[C@H](CCCCN)NC(=O)[C@H](CCCCN)NC(=O)[C@H](Cc1ccccc1)NC(=O)[C@@H](CC(C)C)NC(=O)[C@H](CCCCN)NC(=O)[C@@H](N)CCCCN)C(=O)N[C@@H](CC(C)C)C(=O)N[C@@H](CCCCN)C(=O)N[C@@H](Cc1ccc(O)cc1)C(=O)N[C@@H](CC(C)C)C(N)=O` is reported as 2 ± 2% (horse erythrocytes 5 % v/v; 150 µM).
Under tolerability, `Cc1cc(S(C)(=O)=O)c(S(C)(=O)=O)cc1C(=O)NC(=N)N` is recorded as “not toxic” (patients with chronic heart failure; 300 mg daily, 8 days, together with: standard heart failure medication).
`CN(CCOc1ccc(CC2SC(=O)NC2=O)cc1)c1ccccn1` (stereo not shown) — result for “excreted as N-desmethyl and p-hydroxy metabolites”: about 60% (urine and feces).
`O[C@@H](COc1cccc2ncccc12)CN1CCN([C@@H]2c3ccccc3[C@@H]3[C@H](c4ccccc42)C3(F)F)CC1` has a plasma concentration of about 1000 ng/mL (female Sprague-Dawley rats, plasma; iv bolus, 6 mg/kg, 2 h).
For `CC[C@H](C)[C@@H]1NC(=O)[C@H](Cc2ccc(O)cc2)NC(=O)[C@@H](N)CSSC[C@@H](C(=O)N2CCC[C@H]2C(=O)N[C@@H](CC(C)C)C(=O)NCC(N)=O)NC(=O)[C@H](CC(N)=O)NC(=O)[C@H](CCC(N)=O)NC1=O`, the concentration was about 0.05 ng/mL (monkey, CSF; intranasal, 25 IU, 35 min).
`C/C=C1\NC(=O)[C@H]2CSSCC/C=C/[C@H](CC(=O)N[C@H](C(C)C)C(=O)N2)OC(=O)[C@H](C(C)C)NC1=O`: “grade 3-4 nausea or vomiting incidence” under 5% (cutaneous T-cell lymphoma patients; 14 mg/m^2, antiemetic prophylaxis).
For `Cn1c(=O)c2c(ncn2C)n(C)c1=O`, the epidermal concentration was 16 nmol/g tissue (mouse, epidermis; drinking water, 0.4 mg/mL (2 mM), average over 24 h).
The Cmax of `O=C(O)c1cc(O)c(O)c(O)c1` is reported as 2000 nM (plasma; concentration not given).
`Nc1ncnc2c1nc(Br)n2[C@@H]1O[C@@H]2COP(=O)(O)O[C@H]2[C@H]1O` — result for “Km or Ki”: 4.83 µM (PDE10; cyclic nucleotide hydrolysis, substrate or inhibitor, isothermal titration calorimetry).
With `C=C1CC[C@@H]2[C@](C)(CO)[C@H](O)CC[C@@]2(C)[C@@H]1C/C=C1/C(=O)OC[C@H]1O` the effective permeability was 4.08 ×10⁻⁶ cm/s (rat, colon; no cyclodextrin).
`CNC(=O)c1cccc2cc(Oc3ccnc4cc(OCC5(N)CC5)c(OC)cc34)ccc12` gave a plasma concentration of 430 nM (human patients; oral, 10 mg daily, 21 days, trough).
For `O=C(O)CNC(=O)c1ccccc1[131I]`, “percent injected dose” read 0.1 ± 0.1 %ID (normal rat, spleen; 10 min, together with: co-injected 99mTc-1).
The AUC(0-tau) of `CCOc1ccc(Cc2cc([C@@H]3O[C@H](SC)[C@@H](O)[C@H](O)[C@H]3O)ccc2Cl)cc1` is reported as 1170 ng·h/mL (healthy humans; oral, up to 500 mg once daily, day 7, liquid formulation).
For `O=C1c2cccc3c2[C@H](CCC3)CN1[C@@H]1CN2CCC1CC2`, the Tmax was 5.5 h (healthy volunteers, plasma; oral, 0.75 mg, single dose, given alone).
For `O=c1c2nc(Br)n([C@@H]3O[C@@H]4COP(=O)(O)O[C@H]4[C@H]3O)c2nc2[nH]c(-c3ccccc3)cn12`, “Km or Ki” read 34.4 µM (PDE10; cyclic nucleotide hydrolysis, substrate or inhibitor, isothermal titration calorimetry).
`CC(C)c1nc(N(C)S(C)(=O)=O)nc(-c2ccc(F)cc2)c1/C=C/[C@@H](O)C[C@@H](O)CC(=O)O` gave an AUC ratio of 2.6 (cynomolgus monkey; dose not given, cassette dosing, together with: probenecid; reference: with over without probenecid).
Under pharmacokinetics, `C[C@H]1CO[C@@H]2Cn3cc(C(=O)NCc4ccc(F)cc4F)c(=O)c(O)c3C(=O)N12` is recorded as “no effect” (drug interaction; human; together with: etravirine).
With `Cc1ccccc1-c1cc(N2CCN(C)CC2)ncc1N(C)C(=O)C(C)(C)c1cc(C(F)(F)F)cc(C(F)(F)F)c1` the Tmax was 4.36 h (healthy volunteers, plasma; oral, dose not given, netupitant-palonosetron combination, together with: oral contraceptives).
`CC(C)C[C@H](NC(=O)[C@H](Cc1ccccc1)NC(=O)c1cnccn1)B(O)O`: “grade 3/4 thrombocytopenia incidence” 15.4 to 29.3% (relapsed or refractory multiple myeloma patients; dose not given, single agent, phase III).
Under “dose causing renal toxicity”, `Cn1cc(-c2ccc3nnc(Sc4ccc5ncccc5c4)n3n2)cn1` is recorded as over 80 mg (human patients phase I; dose not given, BUN and creatinine rise).
For `CC[C@]1(O)C[C@@H]2CN(CCc3c([nH]c4ccccc34)[C@@](C(=O)OC)(c3cc4c(cc3OC)N(C)[C@H]3[C@@](O)(C(=O)OC)[C@H](OC(C)=O)[C@]5(CC)C=CCN6CC[C@]43[C@@H]65)C2)C1`, the Cmax was 130 nM (plasma; concentration not given).
`O=S(=O)(O)O.c1csc(CNc2cc[nH]n2)c1.c1csc(CNc2cc[nH]n2)c1`: “comet assay result” “negative” (Hsd:ICR (CD-1) mice, both sexes, liver; oral gavage, males 125, 250, 500 mg/kg/day, 3 consecutive days, females 250, 500, 1000 mg/kg/day).
The Cmax of `Cc1nc(Nc2ncc(C(=O)Nc3c(C)cccc3Cl)s2)cc(N2CCN(CCO)CC2)n1` is reported as 230 nM (plasma; concentration not given).
With `Cc1cn([C@H]2C=C[C@@H](CO)O2)c(=O)[nH]c1=O` the aqueous solubility was 90.6 mg/mL (≈ 404 mM) (water; hydrate form).
`CCCC(CCC)C(=O)O` gave a Cmax of 902000 nM (plasma; concentration not given).
For `CC(=O)C[C@@H](c1ccccc1)c1c(O)c2ccccc2oc1=O`, “parent to metabolite ratio” read 0.98 (refers to: 7-hydroxy metabolite; human; 10 mg, together with: simeprevir 150 mg; reference: with over without simeprevir).

Repeated from above:
`CC(C)C[C@H](NC(=O)[C@H](Cc1ccccc1)NC(=O)c1cnccn1)B(O)O`: “grade 3/4 thrombocytopenia incidence” 15.4 to 29.3% (relapsed or refractory multiple myeloma patients; dose not given, single agent, phase III).
Under “dose causing renal toxicity”, `Cn1cc(-c2ccc3nnc(Sc4ccc5ncccc5c4)n3n2)cn1` is recorded as over 80 mg (human patients phase I; dose not given, BUN and creatinine rise).
For `CC[C@]1(O)C[C@@H]2CN(CCc3c([nH]c4ccccc34)[C@@](C(=O)OC)(c3cc4c(cc3OC)N(C)[C@H]3[C@@](O)(C(=O)OC)[C@H](OC(C)=O)[C@]5(CC)C=CCN6CC[C@]43[C@@H]65)C2)C1`, the Cmax was 130 nM (plasma; concentration not given).
